Measurements collected from several papers.
Lines come from different studies, so protocols differ.
Method: steady-state kinetics
B1: enzyme (Mus musculus, UniProt Q9JLT4); chain GGQQSFDLLVIGGGSGGLACAKEAAQLGKKVAVADYVEPSPRGTKWGLGGTCVNVGCIPKKLMHQAALLGGMIRDAHHYGWEVAQPVQHNWKTMAEAVQNHVKSLNWGHRVQLQDRKVKYFNIKASFVDEHTVRGVDKGGKATLLSAEHIVIATGGRPRYPTQVKGALEYGITSDDIFWLKESPGKTLVVGASYVALECAGFLTGIGLDTTVMMRSIPLRGFDQQMSSLVTEHMESHGTQFLKGCVPSHIKKLPTNQLQVTWEDHASGKEDTGTFDTVLWAIGRVPETRTLNLEKAGISTNPKNQKIIVDAQEATSVPHIYAIGDVAEGRPELTPTAIKAGKLLAQRLFGKSSTLMDYSNVPTTVFTPLEYGCVGLSEEEAVALHGQEHVEVYHAYYKPLEFTVADRDASQCYIKMVCMREPPQLVLGLHFLGPNAGEVTQGFALGIKCGASYAQVMQTVGIHPTCSEEVVKLHISKRSGLEPTVTGCUG
B2: enzyme H376N (Acetivibrio thermocellus, UniProt A3DJ38); chain MKLTIPELSLVVLIGSSGSGKSTFAKKHFKPTEVISSDFCRGLVSDDENDQTVTGAAFDVLHYIVSKRLQLGKLTVVDATNVQESARKPLIEIAKDYHCFPVAVVFNLPEKVCQERNKNRTDRQVEEYVIRKHTQQLKKSIKGLQREGFRYVYILNSPEEVEEVVFERQPLWNNKKDEHGPFDIIGDIHGCYDELKMLLEKLGYLIEEVEGGVGSGKYRVTHPEGRKVLFLGDLVDRGPKITEVLKLVMGMVKSGIALCVPGNHDVKLLRKLNGRDVQITHGLDRTLEQLAKEPQEFIEEVKAFIDGLVSHYVLDDGKLVVAHAGMKEEFQGRGSGKVREFALYGETTGETDEYGLPVRYDWASDYRGKALVVYGNTPQAEVLKVNNTINIDTGCVFGGKLTAYRYPEREIVDVKALKTYYEPAKPFLPKEDMAERFEARTDNDILDINDVLGKKIITTRLMSSITIHEENSIAALEVMSRFAADPHWLIYLPPTMSPCETSKKEGMLEHPIEAFEYFRTRGVGKVVCEQKHMGSRAVVIVCKDSQVAEKRFGVLDGTAGICYTRTGRHFFDDMQLEAELIDRVRKVLDKSGFWGDFNTDWVCLDCELMPWSAKAQKLLEEQYSAVGISGRVVLDEAVKLLKQASLNKTVSFDVSRQTSGKNADINELLQRFTERSEMMQKYVEAYRKYCWPVNSIDDLKLAPFHILATEGKVHSDKNHIWHMDTIAKYCTQDDSLIMATNHILVDVTDAESVDKGIKWWEDLTASGGEGMVVKPYDFIVKNGRELLQPAVKCRGREYLRIIYGPEYTMDENIERLRNRAVGKKRSLALREFSLGMEALERFVRNEPLYRVHECVFGVLALESEPVDPRL
B3: STH1425 H227V (Symbiobacterium thermophilum, UniProt Q67PI3); chain MDKLRVAVVGYGNVGRYALEAVQAAPDMELVGVVRRKVLAATPPELTGVRVVTDISQLEGVQGALLCVPTRSVPEYAEAMLRRGIHTVDSYDIHGDLADLRRRLDPVAREHGAAAVISAGWDPGTDSIIRALLEFMAPKGITYTNFGPGMSMGHSVAVKAIPGVRDALSMTIPAGMGVHKRAVYVELEPGADFAEVERAIKTDPYFVRDETRVTQVESVSALMDVGVGVVMERKGVSGATHNQLFRFEMRINNPALTAQVMVAALRAAARQKPGCYTMIEIPVIDYLPGDREAWIRKLV
B4: enzyme D392A (Acetivibrio thermocellus, UniProt A3DJ38); chain MKLTIPELSLVVLIGSSGSGKSTFAKKHFKPTEVISSDFCRGLVSDDENDQTVTGAAFDVLHYIVSKRLQLGKLTVVDATNVQESARKPLIEIAKDYHCFPVAVVFNLPEKVCQERNKNRTDRQVEEYVIRKHTQQLKKSIKGLQREGFRYVYILNSPEEVEEVVFERQPLWNNKKDEHGPFDIIGDIHGCYDELKMLLEKLGYLIEEVEGGVGSGKYRVTHPEGRKVLFLGDLVDRGPKITEVLKLVMGMVKSGIALCVPGNHDVKLLRKLNGRDVQITHGLDRTLEQLAKEPQEFIEEVKAFIDGLVSHYVLDDGKLVVAHAGMKEEFQGRGSGKVREFALYGETTGETDEYGLPVRYDWASDYRGKALVVYGHTPQAEVLKVNNTINIATGCVFGGKLTAYRYPEREIVDVKALKTYYEPAKPFLPKEDMAERFEARTDNDILDINDVLGKKIITTRLMSSITIHEENSIAALEVMSRFAADPHWLIYLPPTMSPCETSKKEGMLEHPIEAFEYFRTRGVGKVVCEQKHMGSRAVVIVCKDSQVAEKRFGVLDGTAGICYTRTGRHFFDDMQLEAELIDRVRKVLDKSGFWGDFNTDWVCLDCELMPWSAKAQKLLEEQYSAVGISGRVVLDEAVKLLKQASLNKTVSFDVSRQTSGKNADINELLQRFTERSEMMQKYVEAYRKYCWPVNSIDDLKLAPFHILATEGKVHSDKNHIWHMDTIAKYCTQDDSLIMATNHILVDVTDAESVDKGIKWWEDLTASGGEGMVVKPYDFIVKNGRELLQPAVKCRGREYLRIIYGPEYTMDENIERLRNRAVGKKRSLALREFSLGMEALERFVRNEPLYRVHECVFGVLALESEPVDPRL
B5: enzyme N249W (Thermobifida fusca, UniProt Q47RK4); chain MTDVYILDAVRTPFGRYGGALSGIRPDDLAAHVLRALAERSPGLDPAAVDDVFFGDANGAGEDNRNVARMAALLAGWPTSVPGVTLNRLCGSGMESVIAANRAIAVGDASLAVAGGVESMSRAPWVLPKPAQGFPTGHETLYSTTLGWRMVNPAMPEQWTVSLGESTEQVAATYGISRAEQDAFALRSHERAARAWAEGVFDAEITQIPGAELERDESIRETSAEKLAALKPAFRPDGTITAGNASPLWDGAAALLIGDAAAAERVGREPLARIVSRGVAAVDPDVFGIGPVQAAEIALRRAGIGWDDLSVVELNEAFAAQSLACLKLWPDLDPEIVNPNGGAIAIGHPLGASGARIVGTLAHELHRRGGGWGLAAICIGVGQGLAVVLHR
B6: YjiA C66A/C67A/E37A (Escherichia coli, UniProt P24203); chain MNPIAVTLLTGFLGAGKTTLLRHILNEQHGYKIAVIANEFGEVSVDDQLIGDRATQIKTLTNGCIAASRSNELEDALLDLLDNLDKGNIQFDRLVIECTGMADPGPIIQTFFSHEVLCQRYLLDGVIALVDAVHADEQMNQFTIAQSQVGYADRILLTKTDVAGEAEKLHERLARINARAPVYTVTHGDIDLGLLFNTNGFMLEENVVSTKPRFHFIADKQNDISSIVVELDYPVDISEVSRVMENLLLESADKLLRYKGMLWIDGEPNRLLFQGVQRLYSADWDRPWGDEKPHSTMVFIGIQLPEEEIRAAFAGLRK
B7: nitrilase Y142V (Rhodococcus rhodochrous, UniProt A4LA85); chain MVEYTNTFKVAAVQAQPVWFDAAKTVDKTVSIIAEAARNGCELVAFPEVFIPGYPYHIWVDSPLAGMAKFAVRYHENSLTMDSPHVQRLLDAARDHNIAVVVGISERDGGSLYMTQLIIDADGQLVARRRKLKPTHVERSVVGEGNGSDISVYDMPFARLGALNCWEHFQTLTKYAMYSMHEQVHVASWPGMSLYQPEVPAFGVDAQLTATRMYALEGQTFVVCTTQVVTPEAHEFFCENEEQRKLIGRGGGFARIIGPDGRDLATPLAEDEEGILYADIDLSAITLAKQAADPVGHYSRPDVLSLNFNQRRTTPVNTPLSTIHATHTFVPQFGALDGVRELNGADEQRALPSTHSDETDRATASI
B8: Ptgds (Mus musculus, UniProt O09114); chain QGHDTVQPNFQQDKFLGRWYSAGLASNSSWFREKKAVLYMCKTVVAPSTEGGLNLTSTFLRKNQCETKIMVLQPAGAPGHYTYSSPHSGSIHSVSVVEANYDEYALLFSRGTKGPGQDFRMATLYSRTQTLKDELKEKFTTFSKAQGLTEEDIVFLPQPDKCIQE
Sequence of UniProt P22303 (whole entry, looked up): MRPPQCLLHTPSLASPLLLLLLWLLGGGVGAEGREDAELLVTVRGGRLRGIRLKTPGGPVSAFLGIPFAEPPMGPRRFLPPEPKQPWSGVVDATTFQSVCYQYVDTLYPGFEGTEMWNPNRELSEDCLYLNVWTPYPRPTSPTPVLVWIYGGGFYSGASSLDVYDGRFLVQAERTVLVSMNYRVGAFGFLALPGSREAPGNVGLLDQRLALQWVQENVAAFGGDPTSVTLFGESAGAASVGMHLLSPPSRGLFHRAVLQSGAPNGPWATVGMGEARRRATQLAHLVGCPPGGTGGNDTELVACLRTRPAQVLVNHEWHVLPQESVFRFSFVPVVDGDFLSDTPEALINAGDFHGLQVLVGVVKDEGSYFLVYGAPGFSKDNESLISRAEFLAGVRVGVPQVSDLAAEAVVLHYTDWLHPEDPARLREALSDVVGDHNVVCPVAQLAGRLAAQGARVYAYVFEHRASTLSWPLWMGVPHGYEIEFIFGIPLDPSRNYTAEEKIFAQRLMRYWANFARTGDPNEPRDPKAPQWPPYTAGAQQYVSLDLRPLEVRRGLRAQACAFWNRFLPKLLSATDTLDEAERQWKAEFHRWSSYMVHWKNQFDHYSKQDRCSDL
Sequence of UniProt Q9NR63 (whole entry, looked up): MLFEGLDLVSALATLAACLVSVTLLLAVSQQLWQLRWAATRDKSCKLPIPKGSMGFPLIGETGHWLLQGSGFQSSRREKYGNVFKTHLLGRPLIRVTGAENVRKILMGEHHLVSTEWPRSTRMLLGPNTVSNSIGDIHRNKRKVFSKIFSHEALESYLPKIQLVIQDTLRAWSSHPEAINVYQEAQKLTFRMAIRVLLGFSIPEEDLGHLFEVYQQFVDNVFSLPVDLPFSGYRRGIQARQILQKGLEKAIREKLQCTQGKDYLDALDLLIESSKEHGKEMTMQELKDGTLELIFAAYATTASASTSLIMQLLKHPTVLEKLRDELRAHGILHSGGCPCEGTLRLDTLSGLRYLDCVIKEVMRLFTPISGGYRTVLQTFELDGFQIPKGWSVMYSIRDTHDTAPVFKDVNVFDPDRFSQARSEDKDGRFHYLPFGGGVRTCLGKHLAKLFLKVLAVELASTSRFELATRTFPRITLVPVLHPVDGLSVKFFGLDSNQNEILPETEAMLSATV

| Molecule | substrate | pH | temperature | setting | added | Km [µM] |
| --- | --- | --- | --- | --- | --- | --- |
| wbpB (Pseudomonas aeruginosa, UniProt G3XD23) | O=C(O)CCC(=O)C(=O)O | pH 8.5 | 25 °C |  |  | 1350 |
| B1 (enzyme) | N#C[Se]O |  |  |  |  | 33 |
| aacA-aphD (Staphylococcus aureus, UniProt P0A0C1) | NCC[C@H](O)C(=O)N[C@@H]1C[C@H](N)[C@@H](O[C@H]2O[C@H](CN)[C@@H](O)[C@H](O)[C@H]2O)[C@H](O)[C@H]1O[C@H]1O[C@H](CO)[C@@H](O)[C@H](N)[C@H]1O | pH 7.5 | 25 °C |  |  | 25 |
| azu N36H/Q28M/Q34H (Pseudomonas aeruginosa) | O=NO | pH 6.35 |  |  |  | 55000 |
| B2 (enzyme H376N) | Nc1ncnc2c1ncn2[C@@H]1O[C@H](CO)[C@H]2OP(=O)(O)O[C@H]21 | pH 7.5 | 45 °C |  |  | 4700 |
| CYP26B1 (Homo sapiens, UniProt Q9NR63) | CC1=C(/C=C/C(C)=C/C=C/C(C)=C/C(=O)O)C(C)(C)CCC1 |  | 37 °C | not purified |  | 0.019 |
| B3 (STH1425 H227V) | O=C(O)C(=O)Cc1ccccc1 | pH 9 | 30 °C | reductive amination | NH4Cl 200 mM, NADPH 0.5 mM | 12500 |
| B4 (enzyme D392A) | Nc1ncnc2c1ncn2[C@@H]1O[C@H](CO)[C@H]2OP(=O)(O)O[C@H]21 | pH 7.5 | 45 °C |  |  | 100000 |
| ACHE (Homo sapiens, UniProt P22303) | CC(=O)SC[N+](C)(C)C | pH 7 | 25 °C | apparent |  | 470 |
| B5 (enzyme N249W) | CC(C)(COP(=O)(O)OP(=O)(O)OC[C@H]1O[C@@H](n2cnc3c(N)ncnc32)[C@H](O)[C@@H]1OP(=O)(O)O)[C@@H](O)C(=O)NCCC(=O)NCCSC(=O)CCCC(=O)O | pH 7.4 | 37 °C |  |  | 2270 |
| OXA-48 (Klebsiella pneumoniae, UniProt Q6XEC0) | C[C@@H](O)[C@H]1C(=O)N2C(C(=O)O)=C(S[C@@H]3CN[C@H](CNS(N)(=O)=O)C3)[C@H](C)[C@H]12 | pH 7.2 | 30 °C |  |  | 4.1 |
| protein (Micromonospora echinospora, UniProt Q8KND2) | CC(=O)NCCSC(=O)c1c(C)cc(O)cc1O | pH 8 | 35 °C |  |  | 1270 |
| pyc R472S (Rhizobium etli) | Nc1ncnc2c1ncn2[C@@H]1O[C@H](COP(=O)(O)OP(=O)(O)OP(=O)(O)O)[C@@H](O)[C@H]1O | pH 7.8 | 30 °C |  |  | 1000 |
| B6 (YjiA C66A/C67A/E37A) | Nc1nc2c(ncn2[C@@H]2O[C@H](COP(=O)(O)OP(=O)(O)OP(=O)(O)O)[C@@H](O)[C@H]2O)c(=O)[nH]1 | pH 7.6 | 37 °C | apo, anaerobic | MgCl2 5 mM | 100 |
| B7 (nitrilase Y142V) | Cc1cccc(C#N)c1 | pH 7.5 | 25 °C |  |  | 470 |
| B8 (Ptgds) | [H][C@]12C[C@]([H])(OO1)[C@H](C/C=C\CCCC(=O)O)[C@H]2/C=C/[C@@H](O)CCCCC | pH 8 | 25 °C |  |  | 0.8 |

A few entries again:
| Molecule | substrate | pH | temperature | setting | added | Km [µM] |
| --- | --- | --- | --- | --- | --- | --- |
| B4 (enzyme D392A) | Nc1ncnc2c1ncn2[C@@H]1O[C@H](CO)[C@H]2OP(=O)(O)O[C@H]21 | pH 7.5 | 45 °C |  |  | 100000 |
